# Measurements from different studies.
# Numbered parts are unrelated; each lists some results of a single study.

# Block 1
# Substance: PhoQ, residues 284 288 289 292 302 303 SIHMAM
# Method: Sort-seq
# Measured: YFP reporter
# Sample: E. coli
# Notes: PhoQ-PhoP variant library
# Added: 10 µM Mg2+
# Reference: high Mg2+ state
# Direction: higher = stronger signaling
target,fold induction
"PhoP, residues 12 14 15 18 19 TQALL (Escherichia coli, UniProt P23836)",8.51
"PhoP, residues 12 14 15 18 19 NYFRM (Escherichia coli, UniProt P23836)",5.14
"PhoP, residues 12 14 15 18 19 QYFSL (Escherichia coli, UniProt P23836)",3.87

# Block 2
# Target: Sal-like protein 4, full length isoform A (SALL4, Homo sapiens, UniProt Q9UJQ4, residues 1-1053)
# Chain of UniProt Q9UJQ4 (whole entry, looked up): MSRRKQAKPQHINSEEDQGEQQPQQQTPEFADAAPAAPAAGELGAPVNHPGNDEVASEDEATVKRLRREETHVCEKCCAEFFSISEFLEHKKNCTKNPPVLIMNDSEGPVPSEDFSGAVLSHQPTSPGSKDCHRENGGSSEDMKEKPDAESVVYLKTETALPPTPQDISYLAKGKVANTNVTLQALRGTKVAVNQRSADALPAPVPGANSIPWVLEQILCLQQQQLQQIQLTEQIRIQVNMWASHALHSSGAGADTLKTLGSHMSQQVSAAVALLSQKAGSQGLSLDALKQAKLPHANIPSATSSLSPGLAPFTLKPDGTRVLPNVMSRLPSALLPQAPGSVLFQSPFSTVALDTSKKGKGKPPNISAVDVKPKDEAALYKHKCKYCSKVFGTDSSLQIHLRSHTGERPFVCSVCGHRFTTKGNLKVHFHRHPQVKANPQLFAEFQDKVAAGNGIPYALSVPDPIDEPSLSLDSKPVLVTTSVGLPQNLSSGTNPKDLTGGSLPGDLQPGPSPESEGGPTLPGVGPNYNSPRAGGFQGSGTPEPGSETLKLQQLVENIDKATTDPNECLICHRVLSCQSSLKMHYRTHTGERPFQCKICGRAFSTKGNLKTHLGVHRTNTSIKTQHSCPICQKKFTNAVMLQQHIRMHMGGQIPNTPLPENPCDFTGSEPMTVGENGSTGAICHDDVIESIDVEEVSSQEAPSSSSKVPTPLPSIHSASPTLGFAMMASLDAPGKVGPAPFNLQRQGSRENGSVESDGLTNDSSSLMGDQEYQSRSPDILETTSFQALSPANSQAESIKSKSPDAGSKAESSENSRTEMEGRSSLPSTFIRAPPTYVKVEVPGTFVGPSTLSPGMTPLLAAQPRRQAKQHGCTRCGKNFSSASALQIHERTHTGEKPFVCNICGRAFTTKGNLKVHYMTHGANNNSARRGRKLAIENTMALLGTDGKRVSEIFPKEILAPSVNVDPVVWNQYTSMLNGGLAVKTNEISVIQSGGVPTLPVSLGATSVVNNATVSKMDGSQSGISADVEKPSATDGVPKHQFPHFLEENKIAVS
# Method: universal PBM
# Molecule type: double-stranded DNA, one strand shown
# Sample: in vitro
# Tested at: 600 nM
# Notes: 8-mer, flanks averaged, mean of replicates
# Direction: higher = stronger binding
Sequence,E-score
ACGATGAG,0.11
GGATTCTA,-0.0661
CAAGGTCC,-0.172
CATCAACA,0.116
ATTTGCGG,0.145
AATCAAAT,0.267
ATAATTGC,0.363
CCCCGTTA,-0.131

# Block 3
# Target: Phosphate system positive regulatory protein PHO4, full length, GST-tagged (PHO4, Saccharomyces cerevisiae, UniProt P07270, residues 1-312)
# Method: competition protein-binding microarray
# Molecule type: double-stranded DNA, one strand shown
# Sample: in vitro
# Tested at: 2 µM
# Notes: whole 60-bp probe, lowest competitor level
# Added: Cbf1 competitor, 0.05 µM
# Direction: higher = stronger binding
# Target sequence (chain): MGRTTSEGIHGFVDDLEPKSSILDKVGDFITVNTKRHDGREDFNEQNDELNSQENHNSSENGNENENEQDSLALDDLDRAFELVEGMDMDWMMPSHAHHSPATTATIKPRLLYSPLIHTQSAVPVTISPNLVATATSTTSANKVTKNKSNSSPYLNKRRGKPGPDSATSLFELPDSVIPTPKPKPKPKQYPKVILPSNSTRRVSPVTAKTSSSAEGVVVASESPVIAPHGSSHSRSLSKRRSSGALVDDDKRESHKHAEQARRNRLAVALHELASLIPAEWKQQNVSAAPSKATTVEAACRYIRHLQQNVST
Sequence,fluorescence intensity [a.u.]
CTTCTGTAAATTTGAAAGGTGGGTGGACGCGCCCCGGTCTTGATTCGCTTGACGCTGCTG,4180
AAATTACTAAGTTGCGATGTGGGTGACGCCGTATGAGTCTTGATTCGCTTGACGCTGCTG,4330
AGAAACATAGTATGGAACGTGCAAAAGAGTCTGATTGTCTTGATTCGCTTGACGCTGCTG,13100
TGAGCGCCATTAAAGCGCGTGCTGTCGTACTGGGTGGTCTTGATTCGCTTGACGCTGCTG,11700

# Block 4
# Target: Interferon regulatory factor 7, full length, phosphomimetic (IRF7, Homo sapiens, UniProt Q92985, residues 1-503, S101K/S471D/S472D/S475D/S476D/S477D/S483D/S484D/S487D)
# Chain of UniProt Q92985 (whole entry, unmodified, looked up): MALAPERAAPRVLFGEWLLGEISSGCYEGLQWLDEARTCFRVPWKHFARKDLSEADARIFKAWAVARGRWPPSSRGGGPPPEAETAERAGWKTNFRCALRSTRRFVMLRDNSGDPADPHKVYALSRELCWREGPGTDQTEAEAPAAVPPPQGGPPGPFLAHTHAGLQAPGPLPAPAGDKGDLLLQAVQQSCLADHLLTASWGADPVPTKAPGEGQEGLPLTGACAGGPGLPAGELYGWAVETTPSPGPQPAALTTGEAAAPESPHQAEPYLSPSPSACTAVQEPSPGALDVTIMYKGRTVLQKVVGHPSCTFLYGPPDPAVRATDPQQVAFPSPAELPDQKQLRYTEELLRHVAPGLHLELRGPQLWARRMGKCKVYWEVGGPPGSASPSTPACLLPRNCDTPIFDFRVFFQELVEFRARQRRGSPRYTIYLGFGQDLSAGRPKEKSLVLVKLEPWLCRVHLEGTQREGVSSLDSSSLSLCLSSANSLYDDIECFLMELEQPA
# Method: protein-binding microarray
# Molecule type: double-stranded DNA, one strand shown
# Sample: in vitro
# Tested at: 250 nM
# Notes: 60-bp whole probe
# Added: salmon DNA 0.4 mg/ml
# Reference: random background probes
# Direction: higher = stronger binding
# Constant ends, left off below: GCCTAGCAC … GTCTTGATTCGCTTGACGCTGCTG
Sequence,log fluorescence
GACGGTTCCGGTTTCGTGACGTGCTAG,6.97 z-score
GACGGACTGGACTATAGGGACGTGCTA,-0.666 z-score
GTCGGACTGGACTTTCGGGACGTGCTA,-0.24 z-score
TTAGGACTGGATTTTCGGTTAGTGCTA,1.12 z-score
TTAGATATCGGGTTTCGGTTAGTGCTA,6.66 z-score

# Excerpt of the above (block 4):
Sequence,log fluorescence
GACGGTTCCGGTTTCGTGACGTGCTAG,6.97 z-score
TTAGATATCGGGTTTCGGTTAGTGCTA,6.66 z-score
GTCGGACTGGACTTTCGGGACGTGCTA,-0.24 z-score
